# Assay results of several laboratories.
# Each line is one published result; not all experiments were run side by side. Values joined by “and” are separate records of one study, mostly repeats; a detail may differ. Numbers after ± are the reported error.
# Kir3.1/Kir3.2: Kir3.1/Kir3.2 (Homo sapiens, UniProt P48051+P48549)
# UniProt P48549, sequence (whole entry, looked up): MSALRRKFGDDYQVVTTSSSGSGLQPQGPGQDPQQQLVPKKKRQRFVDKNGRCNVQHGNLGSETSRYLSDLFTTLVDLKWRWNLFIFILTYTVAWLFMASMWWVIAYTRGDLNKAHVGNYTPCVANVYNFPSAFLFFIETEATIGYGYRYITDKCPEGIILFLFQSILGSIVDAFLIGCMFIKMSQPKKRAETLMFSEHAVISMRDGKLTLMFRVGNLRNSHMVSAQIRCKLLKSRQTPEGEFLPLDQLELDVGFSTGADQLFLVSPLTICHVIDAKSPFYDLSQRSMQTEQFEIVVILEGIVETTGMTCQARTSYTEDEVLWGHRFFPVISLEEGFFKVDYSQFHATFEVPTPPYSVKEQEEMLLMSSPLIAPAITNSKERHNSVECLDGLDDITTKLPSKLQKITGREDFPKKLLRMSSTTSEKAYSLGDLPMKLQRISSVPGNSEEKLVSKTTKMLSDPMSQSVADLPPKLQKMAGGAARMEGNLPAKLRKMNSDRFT
# UniProt P48051, sequence (whole entry, looked up): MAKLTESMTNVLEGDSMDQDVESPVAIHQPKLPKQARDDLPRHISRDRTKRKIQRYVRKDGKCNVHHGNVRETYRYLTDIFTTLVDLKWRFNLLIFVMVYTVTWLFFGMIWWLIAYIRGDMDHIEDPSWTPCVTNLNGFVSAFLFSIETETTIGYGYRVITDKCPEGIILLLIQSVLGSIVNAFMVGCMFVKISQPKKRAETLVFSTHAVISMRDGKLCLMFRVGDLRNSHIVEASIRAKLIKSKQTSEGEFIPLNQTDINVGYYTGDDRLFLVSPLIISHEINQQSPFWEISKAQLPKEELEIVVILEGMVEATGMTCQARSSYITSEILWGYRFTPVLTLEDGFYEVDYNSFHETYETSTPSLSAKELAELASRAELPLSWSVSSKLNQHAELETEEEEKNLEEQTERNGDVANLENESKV
# MMP13: Collagenase 3 (MMP13, Homo sapiens, UniProt P45452)
# Ephx2: Bifunctional epoxide hydrolase 2 (Ephx2, Mus musculus, UniProt P34914)
# UniProt P34914, sequence (whole entry, looked up): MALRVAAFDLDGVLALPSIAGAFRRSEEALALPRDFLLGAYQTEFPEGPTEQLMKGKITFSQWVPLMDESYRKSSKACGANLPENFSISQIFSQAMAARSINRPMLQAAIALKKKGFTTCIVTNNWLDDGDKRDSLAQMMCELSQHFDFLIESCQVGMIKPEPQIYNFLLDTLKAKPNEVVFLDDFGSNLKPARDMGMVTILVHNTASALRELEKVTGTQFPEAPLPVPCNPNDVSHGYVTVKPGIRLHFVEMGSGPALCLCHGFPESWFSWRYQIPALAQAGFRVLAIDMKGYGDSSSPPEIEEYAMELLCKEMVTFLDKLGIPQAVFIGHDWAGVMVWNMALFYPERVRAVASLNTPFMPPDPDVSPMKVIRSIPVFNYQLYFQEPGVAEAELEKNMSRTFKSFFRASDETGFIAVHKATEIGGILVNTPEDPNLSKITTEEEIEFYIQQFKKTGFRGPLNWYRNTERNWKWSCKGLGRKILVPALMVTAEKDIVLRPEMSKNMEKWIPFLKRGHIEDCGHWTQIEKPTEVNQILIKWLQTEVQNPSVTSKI
# UniProt P31391, sequence (whole entry, looked up): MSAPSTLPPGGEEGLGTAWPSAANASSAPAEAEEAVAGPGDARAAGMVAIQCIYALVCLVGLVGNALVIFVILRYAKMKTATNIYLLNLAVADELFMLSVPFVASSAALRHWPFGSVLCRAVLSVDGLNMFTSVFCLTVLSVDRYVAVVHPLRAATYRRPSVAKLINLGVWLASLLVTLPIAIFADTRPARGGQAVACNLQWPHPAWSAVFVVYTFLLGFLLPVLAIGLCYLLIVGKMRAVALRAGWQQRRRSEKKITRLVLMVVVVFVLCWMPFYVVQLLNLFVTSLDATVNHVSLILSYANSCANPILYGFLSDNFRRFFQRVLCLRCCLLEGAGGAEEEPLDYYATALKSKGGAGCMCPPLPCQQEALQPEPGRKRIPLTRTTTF
# UniProt P42260, sequence (whole entry, looked up): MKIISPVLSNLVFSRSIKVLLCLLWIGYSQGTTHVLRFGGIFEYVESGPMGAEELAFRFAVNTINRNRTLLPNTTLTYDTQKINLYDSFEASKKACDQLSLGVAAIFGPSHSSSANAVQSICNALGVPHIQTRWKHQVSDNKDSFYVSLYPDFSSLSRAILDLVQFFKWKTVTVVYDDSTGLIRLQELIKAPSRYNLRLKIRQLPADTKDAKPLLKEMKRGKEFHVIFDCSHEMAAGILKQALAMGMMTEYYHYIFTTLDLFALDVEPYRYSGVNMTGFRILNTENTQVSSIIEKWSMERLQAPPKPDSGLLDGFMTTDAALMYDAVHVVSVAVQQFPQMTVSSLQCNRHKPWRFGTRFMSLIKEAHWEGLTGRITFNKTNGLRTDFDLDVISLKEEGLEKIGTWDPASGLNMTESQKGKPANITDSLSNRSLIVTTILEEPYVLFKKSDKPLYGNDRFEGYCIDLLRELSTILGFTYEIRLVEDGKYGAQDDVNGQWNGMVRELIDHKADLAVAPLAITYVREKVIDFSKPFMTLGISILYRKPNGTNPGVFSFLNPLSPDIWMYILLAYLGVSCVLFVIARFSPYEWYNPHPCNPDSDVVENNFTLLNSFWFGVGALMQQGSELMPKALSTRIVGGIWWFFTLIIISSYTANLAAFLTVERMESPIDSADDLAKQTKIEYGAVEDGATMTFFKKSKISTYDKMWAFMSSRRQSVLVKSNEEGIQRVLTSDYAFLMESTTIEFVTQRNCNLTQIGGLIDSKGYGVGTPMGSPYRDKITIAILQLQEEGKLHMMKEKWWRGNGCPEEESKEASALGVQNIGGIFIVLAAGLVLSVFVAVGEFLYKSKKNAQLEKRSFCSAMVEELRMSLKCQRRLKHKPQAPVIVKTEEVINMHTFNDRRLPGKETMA
# UniProt P33527, sequence (whole entry, looked up): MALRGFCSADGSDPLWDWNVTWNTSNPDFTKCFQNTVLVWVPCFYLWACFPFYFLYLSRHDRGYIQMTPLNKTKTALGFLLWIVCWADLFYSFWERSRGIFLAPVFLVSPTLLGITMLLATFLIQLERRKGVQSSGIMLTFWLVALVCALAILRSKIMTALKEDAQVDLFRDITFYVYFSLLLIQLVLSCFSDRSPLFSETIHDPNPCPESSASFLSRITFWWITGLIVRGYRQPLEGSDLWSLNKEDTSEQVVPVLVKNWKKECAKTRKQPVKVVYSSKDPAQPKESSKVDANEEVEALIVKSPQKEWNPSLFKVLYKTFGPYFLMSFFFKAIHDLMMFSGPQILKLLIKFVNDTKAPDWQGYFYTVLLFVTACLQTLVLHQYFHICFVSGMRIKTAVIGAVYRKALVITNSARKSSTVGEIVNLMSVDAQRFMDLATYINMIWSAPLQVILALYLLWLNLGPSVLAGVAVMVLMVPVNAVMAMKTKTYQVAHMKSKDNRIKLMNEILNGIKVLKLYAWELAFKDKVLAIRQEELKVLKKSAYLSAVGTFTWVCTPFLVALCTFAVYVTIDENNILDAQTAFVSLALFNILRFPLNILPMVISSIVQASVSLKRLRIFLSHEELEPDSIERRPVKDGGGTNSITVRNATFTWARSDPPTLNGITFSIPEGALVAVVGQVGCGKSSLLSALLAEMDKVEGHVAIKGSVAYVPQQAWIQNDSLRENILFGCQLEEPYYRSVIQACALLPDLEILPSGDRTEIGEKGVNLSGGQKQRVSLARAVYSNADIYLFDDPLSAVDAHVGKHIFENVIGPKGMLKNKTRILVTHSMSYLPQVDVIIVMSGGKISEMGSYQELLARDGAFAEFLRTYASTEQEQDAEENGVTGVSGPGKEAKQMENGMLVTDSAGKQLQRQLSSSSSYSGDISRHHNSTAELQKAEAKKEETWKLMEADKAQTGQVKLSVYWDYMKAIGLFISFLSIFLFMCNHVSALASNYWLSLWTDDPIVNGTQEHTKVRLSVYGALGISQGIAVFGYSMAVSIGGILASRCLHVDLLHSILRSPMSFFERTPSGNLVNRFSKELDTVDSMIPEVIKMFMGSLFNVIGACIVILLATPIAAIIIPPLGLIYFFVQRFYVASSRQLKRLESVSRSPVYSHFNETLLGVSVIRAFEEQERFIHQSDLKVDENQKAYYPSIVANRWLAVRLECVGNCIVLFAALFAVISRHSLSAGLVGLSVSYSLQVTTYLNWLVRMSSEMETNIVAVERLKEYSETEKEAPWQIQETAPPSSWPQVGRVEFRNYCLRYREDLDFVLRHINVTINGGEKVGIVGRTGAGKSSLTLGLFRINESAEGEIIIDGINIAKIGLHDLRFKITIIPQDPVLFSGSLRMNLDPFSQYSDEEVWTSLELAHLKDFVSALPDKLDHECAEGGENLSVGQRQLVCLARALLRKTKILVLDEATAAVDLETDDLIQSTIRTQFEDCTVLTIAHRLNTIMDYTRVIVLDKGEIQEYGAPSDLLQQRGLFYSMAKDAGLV
# UniProt Q92731, sequence (whole entry, looked up): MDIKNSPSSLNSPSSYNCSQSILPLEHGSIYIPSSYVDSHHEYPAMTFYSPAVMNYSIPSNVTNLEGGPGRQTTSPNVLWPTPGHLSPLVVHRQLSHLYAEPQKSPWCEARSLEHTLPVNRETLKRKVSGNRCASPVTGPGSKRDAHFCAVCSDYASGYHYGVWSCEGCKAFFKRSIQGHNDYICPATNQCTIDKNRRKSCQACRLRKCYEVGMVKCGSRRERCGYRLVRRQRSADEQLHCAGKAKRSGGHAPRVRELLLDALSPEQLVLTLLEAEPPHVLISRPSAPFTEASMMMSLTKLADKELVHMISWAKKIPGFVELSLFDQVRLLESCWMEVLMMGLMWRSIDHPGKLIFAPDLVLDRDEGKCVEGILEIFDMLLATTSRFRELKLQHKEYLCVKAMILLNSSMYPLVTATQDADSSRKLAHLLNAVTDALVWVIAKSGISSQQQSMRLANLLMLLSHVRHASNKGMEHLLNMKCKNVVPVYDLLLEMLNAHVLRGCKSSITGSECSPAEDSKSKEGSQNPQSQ
SMILES,target,test,system,setting,IC50
COC(=O)C1=C(C)NC(C)=C(C(=O)OCCN(C)Cc2ccccc2)C1c1cccc([N+](=O)[O-])c1 (stereo not shown),"ABCC1 (Homo sapiens, UniProt P33527)","substrate efflux, inhibitor, flow cytometry",ABCC1-overexpressing SupT1-Vin cells,added: BODIPY-FL-forskolin 100 nM,6.2 ± 6 µM
CC1CC(OC(=O)c2ccccc2O)CC(C)(C)C1 (stereo not shown),"KCNH2 (Homo sapiens, UniProt Q12809)",inhibitor,,10 min,23 ± 23 µM
CC(C)c1ccc(OCC(O)Cn2c(=N)n(Cc3ccccc3)c3ccccc32)cc1 (stereo not shown),Kir3.1/Kir3.2,ion flux,,,3.37 µM
[Cl-].[Cl-].[Cl-].[Tb+3],MMP13,"enzyme activity, inhibitor",,"pH 7.5, with preincubation",8 µM
COc1cccc(-n2c(/C=C/c3ccc([N+](=O)[O-])cc3)nc3ccccc3c2=O)c1,"Grik2 (Rattus norvegicus, UniProt P42260)","ion current, inhibitor, two-electrode voltage clamp",Xenopus oocytes,"concanavalin A pretreatment, added: 100 µM glutamate",> 300 µM
N#Cc1ccc(OCC(O)Cn2c(=N)n(Cc3ccccc3)c3ccccc32)cc1 (stereo not shown),Kir3.1/Kir3.2,ion flux,,,5.27 µM
O=C(O)/C=C/C(=O)NNC(=O)c1cccnc1,"Egl nine homolog 1 (EGLN1, Homo sapiens, UniProt Q9GZT9)","inhibitor, AlphaScreen",,"bimodal curve, rough estimate, added: 2 µM 2-oxoglutarate",0.082 µM
O=S(=O)(Nc1ccc(Cl)cc1)C1CC2OC1C(c1ccc(O)cc1)=C2c1ccc(O)cc1 (stereo not shown),"ESR2 (Homo sapiens, UniProt Q92731)","reporter gene, antagonist, luciferase",,,0.1 µM
Cc1ccc(C(=O)Nc2ccc(S(=O)(=O)O)c3cc(S(=O)(=O)O)cc(S(=O)(=O)O)c23)cc1NC(=O)c1cccc(NC(=O)Nc2cccc(C(=O)Nc3cc(C(=O)Nc4ccc(S(=O)(=O)O)c5cc(S(=O)(=O)O)cc(S(=O)(=O)O)c45)ccc3C)c2)c1,"Sonic hedgehog protein, N-terminal signaling domain (Homo sapiens, UniProt Q15465)","heparin binding, inhibitor, solid-phase binding",,added: fluorescein-heparin,1.9 µM
C/C(=C\CC/C(C)=C/CC[C@]1(C)CCc2cc(O)cc(C)c2O1)CC/C=C(\C)C(=O)O,"PTGS1 (Homo sapiens, UniProt P23219)","enzyme activity, inhibitor, ELISA",,with preincubation,4 µM
Fc1cc(F)cc(F)c1,"Neuronal acetylcholine receptor; alpha4/beta2 (Homo sapiens, UniProt P17787+P43681)","ion current, inhibitor, two-electrode voltage clamp",Xenopus oocytes,added: ACh 1 mM,0.009 atm
[Cl-].[Cl-].[Cl-].[La+3],MMP13,"enzyme activity, inhibitor",,"pH 7.5, with preincubation",13.2 µM
O=C(CCCCCCNC(=O)[C@H]1CCCN(C(=O)c2ccc(NC(=O)Nc3ccc(OC(F)(F)F)cc3)c(F)c2)C1)NO,Ephx2,"enzyme activity, inhibitor, fluorescence",,,0.006 µM
[Cl-].[Cl-].[Zn+2],"HVCN1 (Homo sapiens, UniProt Q96D96, H193A)","proton current, inhibitor, whole-cell voltage clamp",human cells,"pH 6.5, test pulse 100 mV",87.8 µM
NC1CCC(c2ccc(Cl)c(Cl)c2)c2ccccc21 (racemic),"Slc6a4 (Mus musculus, UniProt Q60857, I172M)",,,,1.6 µM
CC(Cc1c[nH]c2ccccc12)(NC(=O)Nc1ccc([N+](=O)[O-])cc1)C(=O)NCC1(c2ccccn2)CCCCC1 (stereo not shown),"NMBR (Homo sapiens, UniProt P28336)","inositol phosphate generation, antagonist",Balb 3T3 expressing NMBR,added: neuromedin B 1 nM,0.0194 ± 0.0007 µM
O=C(CCCCCCNC(=O)[C@H]1CCCN(C(=O)c2ccc(NC(=O)Nc3ccc(OC(F)(F)F)c(F)c3)c(F)c2)C1)NO,Ephx2,"enzyme activity, inhibitor, fluorescence",,,0.0029 µM
O=C1Nc2ccc(I)cc2/C1=C/c1cc(Br)c(O)c(Br)c1,"CSNK2A1 (Homo sapiens, UniProt P68400)","enzyme activity, inhibitor",,,0.129 µM
Nc1nc2c(ncn2[C@@H]2O[C@@H]3COP(=O)(O)O[C@H]3[C@H]2O)c(=O)[nH]1,"Cyclic nucleotide-gated potassium channel (Spirochaeta thermophila, UniProt G0GA88)","channel activity, inhibitor, single-channel bilayer recording",,"100 mV, added: cAMP 100 µM",16 µM and 15 µM
Cc1ccc(C(=O)Nc2ccc(S(=O)(=O)O)c3cc(S(=O)(=O)O)cc(S(=O)(=O)O)c23)cc1NC(=O)c1cccc(NC(=O)Nc2cccc(C(=O)Nc3cc(C(=O)Nc4ccc(S(=O)(=O)O)c5cc(S(=O)(=O)O)cc(S(=O)(=O)O)c45)ccc3C)c2)c1,"MDH2 (Sus scrofa, UniProt P00346)","enzyme activity, inhibitor",,,> 63 µM
COc1ccc2c(CC(=O)NCCCC[C@H](N)C(=O)N[C@@H](CCC(=O)O)C(=O)N[C@@H](Cc3ccc(CS(=O)(=O)O)cc3)C(=O)N[C@@H](CCC(=O)O)C(=O)N[C@@H](Cc3ccc(CS(=O)(=O)O)cc3)C(=O)N[C@@H](CC(C)C)C(=O)N[C@@H](CC(=O)O)C(=O)N[C@@H](Cc3ccc(CS(=O)(=O)O)cc3)C(=O)N[C@@H](CC(=O)O)C(=O)N[C@@H](Cc3ccccc3)C(=O)N[C@@H](CC(C)C)C(=O)N3CCC[C@H]3C(=O)N[C@@H](CCC(=O)O)C(=O)N[C@H](C(=O)N[C@@H](CCC(=O)O)C(=O)N3CCC[C@H]3C(=O)N[C@@H](CC(C)C)C(=O)O)[C@@H](C)O[C@H]3O[C@H](CO[C@@H]4O[C@H](CO)[C@@H](O[C@@H]5O[C@H](CO)[C@H](O)[C@H](O[C@]6(C(=O)O)C[C@H](O)[C@@H](NC(C)=O)[C@H]([C@H](O)[C@H](O)CO)O6)[C@H]5O)[C@H](O[C@@H]5O[C@@H](C)[C@@H](O)[C@@H](O)[C@@H]5O)[C@H]4NC(C)=O)[C@H](O)[C@H](O[C@@H]4O[C@H](CO)[C@H](O)[C@H](O)[C@H]4O)[C@H]3NC(C)=O)cc(=O)oc2c1,"L-selectin (Mus musculus, UniProt P18337)","PSGL-1 binding, inhibitor, flow cytometry, Fc chimera",mouse neutrophils,,~30 µM
CC(C)NCc1ccc(C[C@@H]2NC(=O)[C@H](N(C)C(=O)c3ccc4ccccc4c3)NC(=O)[C@H](Cc3ccccc3)NC(=O)[C@H](N)CSSC[C@@H](C(=O)N[C@@H](Cc3ccc4ccccc4c3)C(N)=O)NC(=O)[C@H](Cc3ccccc3)NC2=O)cc1,"SSTR4 (Homo sapiens, UniProt P31391)","ligand displacement, radioligand",,cell membranes,0.214 µM and 0.535 µM

# For quick reference, copied from above:
SMILES,target,test,system,setting,IC50
CC(C)c1ccc(OCC(O)Cn2c(=N)n(Cc3ccccc3)c3ccccc32)cc1 (stereo not shown),Kir3.1/Kir3.2,ion flux,,,3.37 µM
[Cl-].[Cl-].[Cl-].[Tb+3],MMP13,"enzyme activity, inhibitor",,"pH 7.5, with preincubation",8 µM
